{"data": "Measurements collected from several papers", "note": "Compare with care: the assays were run in different laboratories. Values joined by “and” are separate records of one study, mostly repeats; a detail may differ. Numbers after ± are the reported error."}
{"Compound": "CC[C@H](C)[C@H](NC(=O)[C@H](CCCCN)NC(=O)CNC(=O)[C@H](CC(C)C)NC(=O)[C@H](Cc1ccccc1)NC(=O)[C@H](CCCCN)NC(=O)[C@H](CO)NC(=O)[C@H](Cc1ccccc1)NC(=O)[C@H](Cc1c[nH]c2ccccc12)NC(=O)[C@H](CCC(N)=O)NC(=O)[C@@H](NC(=O)[C@H](Cc1ccccc1)NC(=O)CCCCCNC(=O)CN1CCN(CC(=O)O)CCN(CC(=O)O)CCN(CC(=O)O)CC1)C(C)C)C(=O)N[C@@H](CCC(=O)O)C(=O)N1CCC[C@H]1C(=O)N[C@@H](CC(=O)O)C(=O)N[C@H](C(=O)N[C@@H](CO)C(=O)N[C@@H](CCC(N)=O)C(=O)N[C@H](C(=O)N[C@@H](CCC(N)=O)C(=O)N[C@@H](CC(=O)O)C(=O)N1CCC[C@H]1C(=O)N[C@@H](CC(N)=O)C(=O)N[C@@H](CC(=O)O)C(=O)N[C@@H](CCC(N)=O)C(=O)N[C@@H](Cc1ccc(O)cc1)C(=O)N[C@@H](CCC(=O)O)C(=O)N1CCC[C@H]1C(=O)N[C@@H](Cc1ccccc1)C(=O)O)C(C)C)C(C)C [copper-64 labelled]", "test system": "C57BL/6 mice, small intestine", "conditions": "together with: LPS 0.1 mg/kg intratracheal", "measurement": "tissue uptake", "result": "4.37 ± 0.6 %ID/g"}
{"Compound": "CCn1ccc(-c2cc([C@@H](C)NC(=O)c3cc(OC[C@@H]4CCN4C)ccc3C)c3ccccc3n2)n1", "tested on": "African green monkey cells", "conditions": "31.25 µM", "measurement": "viability", "result": "74.6%"}
{"Compound": "N#[11C]c1ccc(-c2csc(NN=C3CCCC3)n2)cc1", "test system": "C57BL/6 mouse, male", "conditions": "intravenous, 3 MBq, 15 min", "measurement": "uptake in small intestine with contents", "result": "18.6 ± 2.51 %ID/g"}
{"Compound": "C/C(=N\\OCCCN1CCCCC1)c1ccc(C(F)(F)F)cc1", "test system": "rhesus monkey", "conditions": "dose not given, after dosing", "measurement": "systolic blood pressure", "result": "169 mmHg and 162 mmHg"}
{"Compound": "O=C1NC2(CC2)COc2ncc(F)cc2[C@H]2COCCN2c2ccn3ncc1c3n2", "test system": "Sprague-Dawley rat, female, spleen", "conditions": "oral, 10 mg/kg/day, 4 weeks dosing, end of recovery", "measurement": "organ-to-body weight ratio", "result": "0.271 ± 0.041%"}
{"Compound": "C=Cc1c(C)c2cc3nc(c(CC(=O)[O-])c4[n-]c(cc5nc(cc1[n-]2)C(C)=C5CC)c(C)c4C(=O)[O-])C(CCC(=O)[O-])C3C.[Cu+2].[Na+].[Na+].[Na+] (stereo not drawn)", "test system": "Wistar rat, male", "conditions": "oral, 500 mg/kg daily, 28 days", "measurement": "serum alkaline phosphatase", "result": "160 ± 28.5 U/L"}
{"Compound": "CC[C@H](C)[C@H](NC(=O)[C@H](Cc1ccccc1)NC(=O)[C@H](CCC(=O)O)NC(=O)[C@H](CCCNC(=N)N)NC(=O)[C@@H](NC(=O)[C@H](C)NC(=O)[C@H](CCC(=O)O)NC(=O)[C@H](CCC(=O)O)NC(=O)[C@H](CCC(=O)O)NC(=O)[C@H](CC(C)C)NC(=O)[C@H](Cc1ccc(O)cc1)NC(=O)[C@H](CCCCN)NC(=O)[C@H](CO)NC(=O)[C@H](CC(C)C)NC(=O)[C@H](CC(=O)O)NC(=O)[C@H](CO)NC(=O)[C@@H](NC(=O)[C@H](Cc1ccccc1)NC(=O)[C@@H](NC(=O)CNC(=O)[C@H](CCC(N)=O)NC(=O)[C@@H](CO)NC(=O)[C@@H](N)Cc1c[nH]cn1)[C@@H](C)O)[C@@H](C)O)C(C)C)C(=O)N[C@@H](C)C(=O)N[C@@H](Cc1c[nH]c2ccccc12)C(=O)N[C@@H](CC(C)C)C(=O)N[C@@H](CCCCN)C(=O)N[C@@H](CC(N)=O)C(=O)NCC(=O)NCC(=O)N1CCC[C@H]1C(=O)N[C@@H](CO)C(=O)N[C@@H](Cc1ccc(O)cc1)C(=O)N[C@@H](CO)C(=O)N[C@@H](CCSC)C(=O)N[C@@H](CCC(=O)O)C(=O)N[C@@H](Cc1c[nH]cn1)C(=O)N[C@@H](Cc1ccccc1)C(=O)N[C@@H](CCCNC(=N)N)C(=O)N[C@@H](Cc1c[nH]c2ccccc12)C(=O)NCC(=O)N[C@@H](CCCCN)C(=O)N1CCC[C@H]1C(=O)N[C@H](C(N)=O)C(C)C", "test system": "DIO male Wistar rats, serum", "conditions": "dose not given, 10 weeks, fasted", "measurement": "ALT", "result": "30 ± 2 U/L"}
{"Compound": "CC(=O)NCCCC[C@@H]1NC(=O)[C@H](Cc2c[nH]c3c(C)cccc23)NC(=O)[C@H]([C@@H](C)O)NC(=O)[C@H](CC(N)=O)NC(=O)[C@@H](NC(C)=O)C(C)(C)SSC(C)(C)[C@@H](C(=O)N[C@@H](Cc2ccc(OCCN)cc2)C(=O)N[C@@H](Cc2ccc3ccccc3c2)C(=O)NC2(C(=O)N[C@@H](CCC(=O)O)C(=O)N[C@@H](CC(N)=O)C(=O)N[C@@H](Cc3cccnc3)C(=O)N(C)CC(N)=O)CCOCC2)NC1=O", "test system": "human", "conditions": "oral, 10 mg multiple doses, day 10", "measurement": "apparent clearance CL/F", "result": "5380 ± 1450 L/h"}
{"Compound": "CN1Cc2cc(Cl)ccc2-n2c(nnc2C2CCN(c3cccc([18F])n3)CC2)C1", "test": "PET two-tissue compartment model", "test system": "rhesus monkey, occipital cortex", "conditions": "intravenous, dose not given, 60 min scan, baseline scan", "measurement": "total volume of distribution", "result": "0.89 ± 0.31 mL/cm3"}
{"Compound": "CCN(CCCCOc1ccc(CCC(=O)N2CCC(Cc3ccccc3)CC2)cc1OC)Cc1ccccc1", "test system": "Sprague-Dawley rats, both sexes, urine", "conditions": "oral gavage, 25 mg/kg, 24 to 48 h", "measurement": "excreted amount", "result": "243 ± 89.4 ng"}
{"Compound": "CC(C)C[C@H](NC(=O)[C@H](Cc1ccc(O)cc1)NC(=O)[C@H](Cc1c[nH]cn1)NC(=O)[C@H](CC(N)=O)NC(=O)[C@H](CC(C)C)NC(=O)[C@H](C)NC(=O)[C@H](CC(C)C)NC(=O)CNC(=O)CNC(=O)[C@@H](NC(=O)[C@@H](NC(=O)[C@H](CCCCN)NC(=O)CNC(=O)[C@@H](NC(=O)[C@H](CCCCN)NC(=O)[C@H](CCCCN)NC(=O)[C@H](C)NC(=O)[C@H](CCCCN)NC(=O)[C@H](CCCNC(=N)N)NC(=O)[C@H](Cc1ccccc1)NC(=O)[C@H](Cc1c[nH]c2ccccc12)NC(=O)[C@H](CC(=O)O)NC(=O)[C@H](CCCCN)NC(=O)[C@H](Cc1c[nH]c2ccccc12)NC(=O)CN)C(C)C)[C@@H](C)O)C(C)C)C(N)=O", "test system": "zebrafish embryos 4 hpf, E3 medium", "conditions": "1 h", "measurement": "acute toxic concentration", "result": "5 µM"}
{"Compound": "CC(C)(CCCC/C=C/CCCCCC(C)(C)C(=O)O)C(=O)O", "test system": "ICR mice, both sexes", "conditions": "oral, dose not given, 3 h", "measurement": "plasma concentration", "result": "9340 ng/mL"}
{"Compound": "Cc1ccc(OC2CN(C)C2)cc1C(=O)N[C@H](C)c1cc(-c2cnn(C)c2)nc2ccccc12", "tested on": "Vero E6", "conditions": "31.25 µM", "measurement": "viability", "result": "90.8% and 93.4% and 91.3%"}
{"Compound": "NC1CCN(C(=O)Oc2ccc(C3CCCC4(C3)OOC3(O4)C4CC5CC(C4)CC3C5)cc2)CC1 (racemic)", "test system": "male ICR mice, plasma", "conditions": "intravenous, 10 mg/kg", "measurement": "clearance", "result": "147 mL/min/kg"}
{"Compound": "CSCC[C@H](N)C(=O)N[C@@H](C)C(=O)N[C@@H](Cc1c[nH]c2ccccc12)C(=O)N[C@@H](Cc1c[nH]cn1)C(=O)N[C@@H](CC(=O)O)C(=O)N[C@@H](CC(=O)O)C(=O)N[C@@H](CCC(=O)O)C(=O)N[C@@H](CCC(=O)O)C(=O)N[C@@H](Cc1ccccc1)C(=O)N[C@@H](C)C(=O)N[C@@H](CCCNC(=N)N)C(=O)N[C@@H](CCCNC(=N)N)C(=O)N[C@@H](CCCNC(=N)N)C(=O)N[C@@H](CCCNC(=N)N)C(=O)NCCCCCC(=O)NCCCCC(NC(=O)CCCCCNC(=O)[C@H](CCCNC(=N)N)NC(=O)[C@H](CCCNC(=N)N)NC(=O)[C@H](CCCNC(=N)N)NC(=O)[C@H](CCCNC(=N)N)NC(=O)[C@H](C)NC(=O)[C@H](Cc1ccccc1)NC(=O)[C@H](CCC(=O)O)NC(=O)[C@H](CCC(=O)O)NC(=O)[C@H](CC(=O)O)NC(=O)[C@H](CC(=O)O)NC(=O)[C@H](Cc1c[nH]cn1)NC(=O)[C@H](Cc1c[nH]c2ccccc12)NC(=O)[C@H](C)NC(=O)[C@@H](N)CCSC)C(=O)NCCCCC(NC(=O)C(CCCCNC(=O)CCCCCNC(=O)[C@H](CCCNC(=N)N)NC(=O)[C@H](CCCNC(=N)N)NC(=O)[C@H](CCCNC(=N)N)NC(=O)[C@H](CCCNC(=N)N)NC(=O)[C@H](C)NC(=O)[C@H](Cc1ccccc1)NC(=O)[C@H](CCC(=O)O)NC(=O)[C@H](CCC(=O)O)NC(=O)[C@H](CC(=O)O)NC(=O)[C@H](CC(=O)O)NC(=O)[C@H](Cc1c[nH]cn1)NC(=O)[C@H](Cc1c[nH]c2ccccc12)NC(=O)[C@H](C)NC(=O)[C@@H](N)CCSC)NC(=O)CCCCCNC(=O)[C@H](CCCNC(=N)N)NC(=O)[C@H](CCCNC(=N)N)NC(=O)[C@H](CCCNC(=N)N)NC(=O)[C@H](CCCNC(=N)N)NC(=O)[C@H](C)NC(=O)[C@H](Cc1ccccc1)NC(=O)[C@H](CCC(=O)O)NC(=O)[C@H](CCC(=O)O)NC(=O)[C@H](CC(=O)O)NC(=O)[C@H](CC(=O)O)NC(=O)[C@H](Cc1c[nH]cn1)NC(=O)[C@H](Cc1c[nH]c2ccccc12)NC(=O)[C@H](C)NC(=O)[C@@H](N)CCSC)C(N)=O (stereo partly drawn)", "test system": "C57BL/6 mouse female, brain", "conditions": "dose not given, 6 h", "scale": "relative to: total", "measurement": "tissue distribution", "result": "0.47% and 1.01%"}
{"note": "A few entries again:"}
{"Compound": "C/C(=N\\OCCCN1CCCCC1)c1ccc(C(F)(F)F)cc1", "test system": "rhesus monkey", "conditions": "dose not given, after dosing", "measurement": "systolic blood pressure", "result": "169 mmHg and 162 mmHg"}
{"Compound": "O=C1NC2(CC2)COc2ncc(F)cc2[C@H]2COCCN2c2ccn3ncc1c3n2", "test system": "Sprague-Dawley rat, female, spleen", "conditions": "oral, 10 mg/kg/day, 4 weeks dosing, end of recovery", "measurement": "organ-to-body weight ratio", "result": "0.271 ± 0.041%"}
